# Results of several laboratories.
# Lines come from different studies, so protocols differ. ± marks the error that the study gave.
# Organism: Escherichia coli
SMILES,assay,system,setting,endpoint,result
CC[C@H](C)[C@H](NC(=O)[C@H](CCCNC(=N)N)NC(=O)[C@H](CCCCN)NC(=O)[C@H](CC(C)C)NC(=O)[C@H](CC(C)C)NC(=O)CN)C(=O)N[C@@H](CCCCN)C(=O)N[C@H](C(=O)N[C@@H](CC(C)C)C(=O)N[C@@H](CC(C)C)C(=O)NCCCC[C@H](NC(=O)[C@H](CCCCNC(=O)[C@H](CC(C)C)NC(=O)[C@H](CC(C)C)NC(=O)[C@@H](NC(=O)[C@H](CCCCN)NC(=O)[C@@H](NC(=O)[C@H](CCCNC(=N)N)NC(=O)[C@H](CCCCN)NC(=O)[C@H](CC(C)C)NC(=O)[C@H](CC(C)C)NC(=O)CN)[C@@H](C)CC)[C@@H](C)O)NC(=O)[C@H](CC(C)C)NC(=O)[C@H](CC(C)C)NC(=O)[C@@H](NC(=O)[C@H](CCCCN)NC(=O)[C@@H](NC(=O)[C@H](CCCNC(=N)N)NC(=O)[C@H](CCCCN)NC(=O)[C@H](CC(C)C)NC(=O)[C@H](CC(C)C)NC(=O)CN)[C@@H](C)CC)[C@@H](C)O)C(N)=O)[C@@H](C)O,checkerboard,ATCC 25922,together with: polymyxin B,FIC index,0.25
C[C@]1(COC(=O)Cc2ccc(O)c(O)c2)[C@H](C(=O)O)N2C(=O)/C(=C/c3ccccn3)[C@H]2S1(=O)=O,broth microdilution,MG1655 expressing CTX-M-14,"16 µg/mL, 20 h, 37 °C",MIC of ampicillin,16 µg/mL
CC(C)=CCC/C(C)=C/CC/C(C)=C/CNCCOC1C2CC3CC(C2)CC1C3 (stereo not shown),growth,,,IC50,0.6 µg/mL
CC[C@H](C)[C@H](NC(=O)[C@H](CO)NC(=O)[C@H](CO)NC(=O)[C@H](Cc1ccccc1)NC(=O)CN)C(=O)N[C@@H](Cc1ccccc1)C(=O)N[C@@H](CCCNC(=N)N)C(N)=O,,ATCC 8739,together with: 4 µM FeCl3,MBC,> 128 µM
CC(CCC(=O)[O-])C1CCC2C3CCC4CC(O)CCC4(C)C3CC(O)C12C.C[N+](C)(C)CC(O)CC(=O)O (stereo not shown),,TISTR 117,"1 mg per disc, 18 to 24 h, 37 °C, 6 mm disc",inhibition zone diameter,9.5 ± 0.4 mm
CC[C@H](C)[C@H](NC(=O)[C@H](CCCCN)NC(=O)[C@H](CCCCN)NC(=O)[C@H](CC(C)C)NC(=O)[C@H](CCCCN)NC(=O)[C@H](CCC(=O)O)NC(=O)[C@H](CCCCN)NC(=O)[C@@H](NC(=O)[C@H](CCCCN)NC(=O)[C@H](CC(N)=O)NC(=O)[C@H](CCCNC(=N)N)NC(=O)[C@H](Cc1ccccc1)NC(=O)[C@H](CCCCN)NC(=O)[C@H](CCCNC(=N)N)NC(=O)[C@H](CC(C)C)NC(=O)[C@H](CCCNC(=N)N)NC(=O)[C@H](CCCCN)NC(=O)[C@H](CCCNC(=N)N)NC(=O)[C@H](CC(C)C)NC(=O)CN)[C@@H](C)CC)C(=O)NCC(=O)N[C@@H](CCC(N)=O)C(=O)N[C@@H](CCCCN)C(=O)N[C@H](C(=O)N[C@@H](CCC(N)=O)C(=O)NCC(=O)N[C@@H](Cc1ccccc1)C(=O)N[C@H](C(=O)N1CCC[C@H]1C(=O)N[C@@H](CCCCN)C(=O)N[C@@H](CC(C)C)C(=O)N[C@@H](C)C(=O)N1CCC[C@H]1C(=O)N[C@@H](CCCNC(=N)N)C(=O)N[C@H](C(=O)N[C@@H](CC(=O)O)C(=O)N[C@@H](Cc1ccc(O)cc1)C(=O)O)[C@@H](C)O)C(C)C)[C@@H](C)CC,inhibition zone,Am. J16c,,lethal concentration,1.67 µM
CCCCCCCCCCCCCCCCCC(=O)N[C@@H](CCCCN)C(=O)N[C@@H](CCCCN)C(=O)N(CCCCN)CC(=O)N[C@@H](CCCCN)C(=O)N[C@@H](CCCCN)C(N)=O,,K12,,MBC,32 µg/mL
CC[C@H](C)[C@H](NC(=O)[C@H](CCCCN)NC(=O)[C@H](CCCCN)NC(=O)[C@H](CC(C)C)NC(=O)[C@H](CCCCN)NC(=O)[C@H](CCC(=O)O)NC(=O)[C@H](CCCCN)NC(=O)[C@@H](NC(=O)[C@H](CCCCN)NC(=O)[C@H](CC(N)=O)NC(=O)[C@H](CCCNC(=N)N)NC(=O)[C@H](Cc1ccccc1)NC(=O)[C@H](CCCCN)NC(=O)[C@H](CCCNC(=N)N)NC(=O)[C@H](CC(C)C)NC(=O)[C@H](CCCNC(=N)N)NC(=O)[C@H](CCCCN)NC(=O)[C@H](CCCNC(=N)N)NC(=O)[C@H](CC(C)C)NC(=O)[C@@H](N)CCCNC(=N)N)[C@@H](C)CC)C(=O)NCC(=O)N[C@@H](CCC(N)=O)C(=O)N[C@@H](CCCCN)C(=O)N[C@H](C(=O)N[C@@H](CCC(N)=O)C(=O)NCC(=O)N[C@@H](Cc1ccccc1)C(=O)N[C@H](C(=O)N1CCC[C@H]1C(=O)N[C@@H](CCCCN)C(=O)N[C@@H](CC(C)C)C(=O)N[C@@H](CCC(N)=O)C(=O)N1CCC[C@H]1C(=O)N[C@@H](CO)C(=O)N[C@@H](CCCCN)C(=O)N[C@@H](CCC(N)=O)C(=O)N[C@@H](CO)C(=O)O)C(C)C)[C@@H](C)CC,inhibition zone,ATCC 25922,,lethal concentration,2.75 µM
CCCCCC(=O)NCC(=O)N[C@@H](CC(C)C)C(=O)N[C@@H](CC(C)C)C(=O)N[C@@H](CCCCN)C(=O)N[C@@H](CCCNC(=N)N)C(=O)N[C@H](C(=O)N[C@@H](CCCCN)C(=O)N[C@H](C(=O)N[C@@H](CC(C)C)C(=O)N[C@@H](CC(C)C)C(=O)NCCCC[C@H](NC(=O)[C@H](CCCCNC(=O)[C@H](CC(C)C)NC(=O)[C@H](CC(C)C)NC(=O)[C@@H](NC(=O)[C@H](CCCCN)NC(=O)[C@@H](NC(=O)[C@H](CCCNC(=N)N)NC(=O)[C@H](CCCCN)NC(=O)[C@H](CC(C)C)NC(=O)[C@H](CC(C)C)NC(=O)CNC(=O)CCCCC)[C@@H](C)CC)[C@@H](C)O)NC(=O)[C@H](CC(C)C)NC(=O)[C@H](CC(C)C)NC(=O)[C@@H](NC(=O)[C@H](CCCCN)NC(=O)[C@@H](NC(=O)[C@H](CCCNC(=N)N)NC(=O)[C@H](CCCCN)NC(=O)[C@H](CC(C)C)NC(=O)[C@H](CC(C)C)NC(=O)CNC(=O)CCCCC)[C@@H](C)CC)[C@@H](C)O)C(N)=O)[C@@H](C)O)[C@@H](C)CC,checkerboard,ATCC 25922,together with: polymyxin B,FIC index,0.125
CCCCCCCCCCCCCC(=O)NCCCC[C@H](N)C(=O)N[C@@H](CCCCN)C(=O)N[C@@H](CCCCN)C(=O)N[C@@H](CCCCN)C(=O)N[C@@H](CCCCN)C(=O)N[C@@H](CCCCN)C(N)=O,,K12,,MBC,128 µg/mL
O=C(O)[C@@H]1Cc2c([nH]c3ccccc23)[C@@H](c2ccc(Cl)cc2Br)N1,,BL21(DE3),"125 µM, 18 h",growth inhibition,0%
CC[C@H](C)[C@H](NC(=O)[C@H](CCCCN)NC(=O)[C@H](CCCCN)NC(=O)[C@H](CC(C)C)NC(=O)[C@H](CCCCN)NC(=O)[C@H](CCC(=O)O)NC(=O)[C@H](CCCCN)NC(=O)[C@@H](NC(=O)[C@H](CCCCN)NC(=O)[C@H](CC(N)=O)NC(=O)[C@H](CCCNC(=N)N)NC(=O)[C@H](Cc1ccccc1)NC(=O)[C@H](CCCCN)NC(=O)[C@H](CCCNC(=N)N)NC(=O)[C@H](CC(C)C)NC(=O)[C@H](CCCNC(=N)N)NC(=O)[C@H](CCCCN)NC(=O)[C@H](CCCNC(=N)N)NC(=O)[C@@H](N)CC(C)C)[C@@H](C)CC)C(=O)NCC(=O)N[C@@H](CCC(N)=O)C(=O)N[C@@H](CCCCN)C(=O)N[C@H](C(=O)N[C@@H](CCC(N)=O)C(=O)NCC(=O)N[C@@H](Cc1ccccc1)C(=O)N[C@H](C(=O)N1CCC[C@H]1C(=O)N[C@@H](CCCCN)C(=O)N[C@@H](CC(C)C)C(=O)O)C(C)C)[C@@H](C)CC,inhibition zone,DH5α,,lethal concentration,1.46 µM
CCCCCCCC(=O)N[C@@H](CCCCNS(=O)(=O)c1cccc2c(N(C)C)cccc12)C(=O)N[C@H](C(=O)N[C@@H](CCN)C(=O)N[C@H]1CCNC(=O)[C@H]([C@@H](C)O)NC(=O)[C@H](CCN)NC(=O)[C@H](CCN)NC(=O)[C@H](CC(C)C)NC(=O)[C@@H](Cc2ccccc2)NC(=O)[C@H](CCN)NC1=O)[C@@H](C)O,isothermal titration calorimetry,,"concentration not given, 37 °C, second set of sites",entropy change,-3.3 kcal/mol
CC[C@H](C)[C@H](NC(=O)[C@H](CCCNC(=N)N)NC(=O)[C@@H](N)CCCNC(=N)N)C(=O)N[C@@H](CCCNC(=N)N)C(=O)N[C@@H](Cc1ccccc1)C(=O)N[C@@H](CCCNC(=N)N)C(=O)N1CCC[C@H]1C(=O)N1CCC[C@H]1C(=O)N[C@@H](Cc1ccc(O)cc1)C(=O)N[C@@H](CC(C)C)C(=O)N1CCC[C@H]1C(=O)N[C@@H](CCCNC(=N)N)C(=O)N1CCC[C@H]1C(=O)NCC(=O)N[C@@H](CCCNC(=N)N)C(=O)N[C@@H](CCCNC(=N)N)C(=O)N1CCC[C@H]1C(=O)N[C@@H](CCCNC(=N)N)C(=O)N[C@@H](Cc1ccccc1)C(=O)N1CCC[C@H]1C(=O)N1CCC[C@H]1C(=O)N1CCC[C@H]1C(=O)N[C@@H](Cc1ccccc1)C(=O)N1CCC[C@H]1C(=O)N[C@H](C(=O)N1CCC[C@H]1C(=O)N[C@@H](CCCNC(=N)N)C(=O)N[C@H](C(=O)N1CCC[C@H]1C(=O)N[C@@H](CCCNC(=N)N)C(=O)N[C@H](C(=O)N1CCC[C@H]1C(=O)O)[C@@H](C)CC)[C@@H](C)CC)[C@@H](C)CC,"membrane permeabilization, propidium iodide flow cytometry","BW25113, Mueller-Hinton broth","1 µM, 15 min, 37 °C",PI-positive cells,< 3%
CC[C@H](C)[C@H](NC(=O)[C@H](CO)NC(=O)[C@H](CO)NC(=O)[C@H](Cc1ccccc1)NC(=O)CN)C(=O)N[C@@H](Cc1ccccc1)C(=O)N[C@@H](CCCNC(=N)N)C(=O)NCC(=O)N[C@H](C(=O)N[C@@H](C)C(=O)N[C@@H](CCCCN)C(N)=O)C(C)C,,ATCC 8739,10% FBS,MBC,> 128 µM
CCCCCCCC(=O)NCC(=O)N[C@@H](CC(C)C)C(=O)N[C@@H](CC(C)C)C(=O)N[C@@H](CCCCN)C(=O)N[C@@H](CCCNC(=N)N)C(=O)N[C@H](C(=O)N[C@@H](CCCCN)C(=O)N[C@H](C(=O)N[C@@H](CC(C)C)C(=O)N[C@@H](CC(C)C)C(N)=O)[C@@H](C)O)[C@@H](C)CC,checkerboard,ATCC 25922,together with: rifampicin,FIC index,0.562

# Some of these lines once more:
SMILES,assay,system,setting,endpoint,result
CC[C@H](C)[C@H](NC(=O)[C@H](CCCCN)NC(=O)[C@H](CCCCN)NC(=O)[C@H](CC(C)C)NC(=O)[C@H](CCCCN)NC(=O)[C@H](CCC(=O)O)NC(=O)[C@H](CCCCN)NC(=O)[C@@H](NC(=O)[C@H](CCCCN)NC(=O)[C@H](CC(N)=O)NC(=O)[C@H](CCCNC(=N)N)NC(=O)[C@H](Cc1ccccc1)NC(=O)[C@H](CCCCN)NC(=O)[C@H](CCCNC(=N)N)NC(=O)[C@H](CC(C)C)NC(=O)[C@H](CCCNC(=N)N)NC(=O)[C@H](CCCCN)NC(=O)[C@H](CCCNC(=N)N)NC(=O)[C@H](CC(C)C)NC(=O)CN)[C@@H](C)CC)C(=O)NCC(=O)N[C@@H](CCC(N)=O)C(=O)N[C@@H](CCCCN)C(=O)N[C@H](C(=O)N[C@@H](CCC(N)=O)C(=O)NCC(=O)N[C@@H](Cc1ccccc1)C(=O)N[C@H](C(=O)N1CCC[C@H]1C(=O)N[C@@H](CCCCN)C(=O)N[C@@H](CC(C)C)C(=O)N[C@@H](C)C(=O)N1CCC[C@H]1C(=O)N[C@@H](CCCNC(=N)N)C(=O)N[C@H](C(=O)N[C@@H](CC(=O)O)C(=O)N[C@@H](Cc1ccc(O)cc1)C(=O)O)[C@@H](C)O)C(C)C)[C@@H](C)CC,inhibition zone,Am. J16c,,lethal concentration,1.67 µM
CCCCCCCCCCCCCCCCCC(=O)N[C@@H](CCCCN)C(=O)N[C@@H](CCCCN)C(=O)N(CCCCN)CC(=O)N[C@@H](CCCCN)C(=O)N[C@@H](CCCCN)C(N)=O,,K12,,MBC,32 µg/mL
